Experimental data from different studies.
Parts stem from different laboratories: compare values within a part only. Several values in a cell are separate wells, animals, samples, runs or records.
Chain of UniProt P42336 (whole entry, unmodified, looked up): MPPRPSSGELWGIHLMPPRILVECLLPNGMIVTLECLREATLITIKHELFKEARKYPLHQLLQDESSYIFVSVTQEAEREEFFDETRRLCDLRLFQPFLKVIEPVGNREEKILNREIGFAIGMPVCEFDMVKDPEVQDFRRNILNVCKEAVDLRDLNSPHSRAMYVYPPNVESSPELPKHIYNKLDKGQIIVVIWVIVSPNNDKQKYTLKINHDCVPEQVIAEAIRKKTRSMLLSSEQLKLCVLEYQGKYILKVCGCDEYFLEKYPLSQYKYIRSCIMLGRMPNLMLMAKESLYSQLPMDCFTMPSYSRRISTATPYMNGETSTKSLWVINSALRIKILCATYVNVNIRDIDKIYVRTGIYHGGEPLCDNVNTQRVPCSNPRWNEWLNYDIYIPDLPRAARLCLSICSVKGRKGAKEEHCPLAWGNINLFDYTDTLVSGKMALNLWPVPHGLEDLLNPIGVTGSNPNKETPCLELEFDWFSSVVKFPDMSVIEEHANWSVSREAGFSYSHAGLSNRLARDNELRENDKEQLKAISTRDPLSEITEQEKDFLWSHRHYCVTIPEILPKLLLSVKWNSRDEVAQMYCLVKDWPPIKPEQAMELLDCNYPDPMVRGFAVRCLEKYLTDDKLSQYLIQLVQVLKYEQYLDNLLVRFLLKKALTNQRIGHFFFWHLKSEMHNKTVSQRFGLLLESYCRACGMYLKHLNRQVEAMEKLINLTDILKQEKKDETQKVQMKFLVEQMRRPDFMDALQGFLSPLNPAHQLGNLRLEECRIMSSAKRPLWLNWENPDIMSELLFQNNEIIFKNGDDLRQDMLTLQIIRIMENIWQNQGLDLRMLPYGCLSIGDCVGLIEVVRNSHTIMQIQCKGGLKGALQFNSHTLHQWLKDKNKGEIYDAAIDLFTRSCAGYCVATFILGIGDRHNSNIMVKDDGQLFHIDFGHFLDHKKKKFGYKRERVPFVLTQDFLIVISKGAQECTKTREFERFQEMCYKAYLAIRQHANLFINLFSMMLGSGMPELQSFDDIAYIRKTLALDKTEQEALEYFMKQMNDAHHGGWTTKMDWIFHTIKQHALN
Chain of UniProt P07333 (whole entry, looked up): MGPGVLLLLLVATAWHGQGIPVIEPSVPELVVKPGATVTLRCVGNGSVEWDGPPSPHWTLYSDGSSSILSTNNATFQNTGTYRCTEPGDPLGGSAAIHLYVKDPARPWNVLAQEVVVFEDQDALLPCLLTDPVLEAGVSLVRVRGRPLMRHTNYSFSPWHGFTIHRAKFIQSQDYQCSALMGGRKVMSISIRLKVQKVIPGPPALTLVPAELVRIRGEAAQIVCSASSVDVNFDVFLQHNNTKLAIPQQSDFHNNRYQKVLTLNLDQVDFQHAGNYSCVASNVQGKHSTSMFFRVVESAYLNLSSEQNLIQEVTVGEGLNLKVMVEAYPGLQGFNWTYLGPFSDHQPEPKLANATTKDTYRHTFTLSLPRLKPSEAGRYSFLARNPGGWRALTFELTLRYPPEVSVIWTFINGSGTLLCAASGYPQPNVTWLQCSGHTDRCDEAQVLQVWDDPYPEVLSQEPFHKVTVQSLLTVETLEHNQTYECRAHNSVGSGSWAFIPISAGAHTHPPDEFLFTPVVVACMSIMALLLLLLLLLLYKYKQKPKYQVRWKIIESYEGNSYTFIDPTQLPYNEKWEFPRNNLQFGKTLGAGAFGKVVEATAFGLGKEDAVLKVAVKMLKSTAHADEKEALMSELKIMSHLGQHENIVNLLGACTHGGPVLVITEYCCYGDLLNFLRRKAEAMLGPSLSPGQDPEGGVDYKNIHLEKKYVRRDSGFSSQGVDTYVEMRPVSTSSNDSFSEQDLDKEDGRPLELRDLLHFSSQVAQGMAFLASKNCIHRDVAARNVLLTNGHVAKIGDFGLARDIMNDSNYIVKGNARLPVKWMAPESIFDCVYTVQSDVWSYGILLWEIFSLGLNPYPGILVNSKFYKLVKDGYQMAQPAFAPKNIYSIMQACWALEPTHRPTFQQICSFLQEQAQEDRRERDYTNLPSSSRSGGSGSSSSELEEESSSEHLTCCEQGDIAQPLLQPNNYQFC
Chain of UniProt Q16816 (whole entry, looked up): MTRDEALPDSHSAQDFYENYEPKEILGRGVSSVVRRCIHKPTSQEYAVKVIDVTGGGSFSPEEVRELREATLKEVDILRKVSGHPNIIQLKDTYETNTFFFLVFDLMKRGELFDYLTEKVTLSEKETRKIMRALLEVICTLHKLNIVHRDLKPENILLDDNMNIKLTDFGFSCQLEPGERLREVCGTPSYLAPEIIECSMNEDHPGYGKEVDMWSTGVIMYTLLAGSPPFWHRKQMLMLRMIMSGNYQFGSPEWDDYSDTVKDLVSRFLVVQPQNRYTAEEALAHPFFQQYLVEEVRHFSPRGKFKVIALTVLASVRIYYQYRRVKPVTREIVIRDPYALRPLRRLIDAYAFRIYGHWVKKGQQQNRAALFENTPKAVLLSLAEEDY
Chain of UniProt P29597 (whole entry, looked up): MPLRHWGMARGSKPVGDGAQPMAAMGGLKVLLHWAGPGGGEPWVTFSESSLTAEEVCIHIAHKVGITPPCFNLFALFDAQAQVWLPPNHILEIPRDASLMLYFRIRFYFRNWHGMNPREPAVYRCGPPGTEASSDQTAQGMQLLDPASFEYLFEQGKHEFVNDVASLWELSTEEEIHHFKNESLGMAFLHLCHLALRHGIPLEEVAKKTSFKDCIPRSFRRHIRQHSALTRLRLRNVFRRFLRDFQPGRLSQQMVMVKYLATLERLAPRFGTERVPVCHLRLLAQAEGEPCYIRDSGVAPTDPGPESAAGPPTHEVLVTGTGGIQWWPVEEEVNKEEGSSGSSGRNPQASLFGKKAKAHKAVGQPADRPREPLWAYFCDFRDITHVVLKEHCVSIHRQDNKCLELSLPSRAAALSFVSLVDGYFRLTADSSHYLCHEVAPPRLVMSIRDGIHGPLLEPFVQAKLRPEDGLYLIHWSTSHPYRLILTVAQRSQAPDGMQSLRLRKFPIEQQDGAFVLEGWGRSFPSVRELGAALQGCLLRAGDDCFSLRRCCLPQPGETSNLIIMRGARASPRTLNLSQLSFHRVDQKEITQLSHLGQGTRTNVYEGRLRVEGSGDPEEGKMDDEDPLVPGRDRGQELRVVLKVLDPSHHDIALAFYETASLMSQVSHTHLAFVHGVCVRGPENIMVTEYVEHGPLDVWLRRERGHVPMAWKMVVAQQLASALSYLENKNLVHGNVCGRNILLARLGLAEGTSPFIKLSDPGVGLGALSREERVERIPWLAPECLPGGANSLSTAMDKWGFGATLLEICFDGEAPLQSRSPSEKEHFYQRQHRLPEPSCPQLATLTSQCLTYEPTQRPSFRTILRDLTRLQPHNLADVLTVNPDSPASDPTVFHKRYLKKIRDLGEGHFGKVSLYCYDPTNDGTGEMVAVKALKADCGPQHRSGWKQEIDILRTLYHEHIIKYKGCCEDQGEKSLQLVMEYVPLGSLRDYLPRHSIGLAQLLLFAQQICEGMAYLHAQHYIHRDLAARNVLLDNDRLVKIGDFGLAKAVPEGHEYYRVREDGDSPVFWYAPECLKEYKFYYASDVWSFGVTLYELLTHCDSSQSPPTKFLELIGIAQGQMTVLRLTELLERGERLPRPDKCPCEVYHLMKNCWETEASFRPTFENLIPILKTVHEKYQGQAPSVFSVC

Series 1
Compound: COc1cc(-c2nc3ccc(C(=O)NCCCN(C)C)cc3n2C2CCC2)cc(OC)c1OC
Observed: binding
Technique: competition with immobilised ligand
Concentration: 1 µM
The remaining binding was 37% (PIK3C2B (Homo sapiens, UniProt O00750)).
MET (Homo sapiens, UniProt P08581, M1250T) — remaining binding: 90%.
For Ribosomal protein S6 kinase alpha-1, C-terminal kinase domain (RPS6KA1, Homo sapiens, UniProt Q15418): remaining binding read 92%.
For PIK3CA (Homo sapiens, UniProt P42336): remaining binding read 95%.
It gave 52% for remaining binding (CDK15 (Homo sapiens, UniProt Q96Q40)).
It gave 92% for remaining binding (CSF1R (Homo sapiens, UniProt P07333)).
It gave 100% for remaining binding (FLT3 (Homo sapiens, UniProt P36888, D835V)).
The remaining binding was 100% (PKN1 (Homo sapiens, UniProt Q16512)).
It gave 69% for remaining binding (EGFR (Homo sapiens, UniProt P00533, L858R)).
The remaining binding was 84% (MYLK3 (Homo sapiens, UniProt Q32MK0)).
It gave 18% for remaining binding (ACVRL1 (Homo sapiens, UniProt P37023)).
The remaining binding was 64% (NEK10 (Homo sapiens, UniProt Q6ZWH5)).
It gave 98% for remaining binding (Macrophage colony-stimulating factor 1 receptor, autoinhibited (CSF1R, Homo sapiens, UniProt P07333)).
For GSK3A (Homo sapiens, UniProt P49840): remaining binding read 97%.
For KIT (Homo sapiens, UniProt P10721, D816V): remaining binding read 87%.
PRKCD (Homo sapiens, UniProt Q05655) — remaining binding: 69%.
The remaining binding was 100% (MAP3K11 (Homo sapiens, UniProt Q16584)).
MAPK4 (Homo sapiens, UniProt P31152) — remaining binding: 89%.
For PIK3CA (Homo sapiens, UniProt P42336, Q546K): remaining binding read 72%.
It gave 100% for remaining binding (PIKFYVE (Homo sapiens, UniProt Q9Y2I7)).
The remaining binding was 67% (RIOK1 (Homo sapiens, UniProt Q9BRS2)).
For DCLK3 (Homo sapiens, UniProt Q9C098): remaining binding read 100%.
It gave 100% for remaining binding (Ribosomal protein S6 kinase alpha-5, C-terminal kinase domain (RPS6KA5, Homo sapiens, UniProt O75582)).
The remaining binding was 100% (CDK18 (Homo sapiens, UniProt Q07002)).
It gave 86% for remaining binding (CHEK1 (Homo sapiens, UniProt O14757)).

Series 2
Cell line: HCC1569
Technique: in-cell western
Refers to: CDK1 phospho-Thr14
Concentration: 1111.11 nM
Under “pCDK1 (Thr14) level”, `Cc1ccc(O)c(C)c1-c1cnc2[nH]c(-c3cnc(N4CCC(CN5CCN(c6ccc7c(c6)CN(C6CCC(=O)NC6=O)C7=O)CC5)CC4)nc3)cc2c1C#N` (stereo not shown) is recorded as 104 RLU and 102 RLU.
For `Cc1ccc(O)c(C)c1-c1cnc2[nH]c(-c3cnc(N4CCC(CCN5CCN(c6ccc(N7CCC(=O)NC7=O)cc6F)CC5)CC4)nc3)cc2c1C#N`, “pCDK1 (Thr14) level” read 92.2 RLU and 86.2 RLU.
Under “pCDK1 (Thr14) level”, `Cc1ncc(-c2cc3c(Cl)c(-c4c(C)ccc(O)c4C)cnc3[nH]2)cn1` is recorded as 48.8 RLU and 54.6 RLU.
Under “pCDK1 (Thr14) level”, `Cc1ncc(-c2cc3c(C(N)=O)c(-c4c(C)ccc(O)c4C)cnc3[nH]2)cn1` is recorded as 14.2 RLU and 9.41 RLU.
`Cc1ccc(O)c(C)c1-c1cnc2[nH]c(-c3cnc(N4CCC5(CC4)CC(CN4CCN(c6ccc(NC7CCC(=O)NC7=O)cc6F)CC4)C5)nc3)cc2c1C#N` (stereo not shown): “pCDK1 (Thr14) level” 128 RLU and 136 RLU.
Under “pCDK1 (Thr14) level”, `Cc1ccc(O)c(C)c1-c1cnc2[nH]c(-c3cnc(N4CCC(CCN5CCN(c6ccc(NC7CCC(=O)NC7=O)cc6F)CC5)CC4)nc3)cc2c1C#N` (stereo not shown) is recorded as 136 RLU and 142 RLU.
`Cc1ncc(-c2cc3c(C(F)(F)F)c(-c4c(C)ccc(O)c4C)cnc3[nH]2)cn1` — result for “pCDK1 (Thr14) level”: 51.9 RLU and 53.6 RLU.
`Cc1ccc(O)c(C)c1-c1cnc2[nH]c(-c3cnc(N)nc3)cc2c1C#N`: “pCDK1 (Thr14) level” 62.8% and 75%.

Series 3
SMILES: COc1cc(C(=O)OCCCN2CCCN(CCCOC(=O)c3cc(OC)c(OC)c(OCc4ccc([N+](=O)[O-])cc4)c3)CC2)cc(OC)c1OC
Technique: von Frey test
For mechanical pain; mouse, STZ diabetic neuropathy; intravenous, 30 mg/kg, 3 h post-dose, first injection, day 8: “paw withdrawal threshold” read 0.03 g and 0.2 g and 0.4 g and 0.51 g and 0.23 g.
The “paw withdrawal threshold” was 0.51 g and 0.44 g and 0.98 g (mouse, CFA inflammatory pain; intravenous, dose not given, 24 h post-dose, third injection, day 5).
mouse, CFA inflammatory pain; intravenous, dose not given, 5 h post-dose, third injection, day 5 — “paw withdrawal threshold”: 0.51 g and 0.75 g and 0.98 g and 0.44 g and 0.65 g.
The “paw withdrawal threshold” was 0.98 g and 0.51 g and 0.65 g and 0.75 g (mouse, CFA inflammatory pain; intravenous, dose not given, 3 h post-dose, first injection, day 1).
The “paw withdrawal threshold” was 0.23 g and 0.4 g and 0.29 g (mouse, CFA inflammatory pain; subcutaneous, 10 mg/kg, 1 h post-dose, second injection, day 3).
For mechanical pain; mouse, STZ diabetic neuropathy; intravenous, 30 mg/kg, 1 h post-dose, first injection, day 8: “paw withdrawal threshold” read 0.65 g and 0.51 g and 0.98 g and 0.4 g.
mouse, CFA inflammatory pain; intraplantar, 10 µg, 1 h post-dose, day 3 after CFA — “paw withdrawal threshold”: 0.98 g and 1.3 g and 2.23 g.

Series 4
SMILES: CC[C@@]1(c2cccc(-c3c(F)cncc3OC)c2)C2=C(Nc3n[nH]cc31)[C@H](F)C(C)(C)CC2=O (single isomer, unassigned)
Concentration: 1 µM
It gave 45% for remaining binding (Non-receptor tyrosine-protein kinase TYK2, JH2 pseudokinase domain (TYK2, Homo sapiens, UniProt P29597); kinase binding, KINOMEscan; relative to: DMSO control).
The remaining binding was 100% (FGFR4 (Homo sapiens, UniProt P22455); binding, competition with immobilised ligand).
The remaining binding was 36% (MAPK15 (Homo sapiens, UniProt Q8TD08); kinase binding, KINOMEscan; relative to: DMSO control).
PHKG1 (Homo sapiens, UniProt Q16816); binding, competition with immobilised ligand — remaining binding: 100%.
The remaining binding was 87% (PRKACA (Homo sapiens, UniProt P17612); kinase binding, KINOMEscan; relative to: DMSO control).
The remaining binding was 80% (ACVR2B (Homo sapiens, UniProt Q13705); binding, competition with immobilised ligand).
It gave 62% for remaining binding (HASPIN (Homo sapiens, UniProt Q8TF76); binding, competition with immobilised ligand).
It gave 78% for remaining binding (ROS1 (Homo sapiens, UniProt P08922); binding, competition with immobilised ligand).
Ribosomal protein S6 kinase alpha-2, C-terminal kinase domain (RPS6KA2, Homo sapiens, UniProt Q15349); kinase binding, KINOMEscan; relative to: DMSO control — remaining binding: 100%.
For Tyrosine-protein kinase JAK2, JH1 (JAK2, Homo sapiens, UniProt O60674); binding, competition with immobilised ligand: remaining binding read 82%.
TGFBR1 (Homo sapiens, UniProt P36897); kinase binding, KINOMEscan; relative to: DMSO control — remaining binding: 97%.
The remaining binding was 100% (MAPK13 (Homo sapiens, UniProt O15264); kinase binding, KINOMEscan; relative to: DMSO control).
CSK (Homo sapiens, UniProt P41240); kinase binding, KINOMEscan; relative to: DMSO control — remaining binding: 96%.
The remaining binding was 62% (NEK4 (Homo sapiens, UniProt P51957); binding, competition with immobilised ligand).
For STK38 (Homo sapiens, UniProt Q15208); binding, competition with immobilised ligand: remaining binding read 60%.
EGFR (Homo sapiens, UniProt P00533, L858R); kinase binding, KINOMEscan; relative to: DMSO control — remaining binding: 100%.
For PIK3CG (Homo sapiens, UniProt P48736); kinase binding, KINOMEscan; relative to: DMSO control: remaining binding read 70%.
The remaining binding was 100% (SIK1 (Homo sapiens, UniProt P57059); KINOMEscan).

Series 5
SMILES: C[C@@H]1CN(c2ccc(-c3cc(C(=O)NCCOCCOCCOCCOCCNC(=O)/C=C/c4[nH]cc(C(=O)N[C@@H](CC(N)=O)c5ccc(F)c(Cl)c5)c4-c4ccc(Cl)cc4F)ccc3F)cc2NC(=O)c2c[nH]c(=O)cc2C(F)(F)F)C[C@H](C)N1C
Observed: thermal unfolding
Technique: differential scanning fluorimetry
Concentration: 5.5 µM
Direction: higher = more unfolded
DCAF1: DDB1- and CUL4-associated factor 1 (DCAF1, Homo sapiens, UniProt Q9Y4B6)
Chain of UniProt Q9Y4B6 (whole entry, looked up): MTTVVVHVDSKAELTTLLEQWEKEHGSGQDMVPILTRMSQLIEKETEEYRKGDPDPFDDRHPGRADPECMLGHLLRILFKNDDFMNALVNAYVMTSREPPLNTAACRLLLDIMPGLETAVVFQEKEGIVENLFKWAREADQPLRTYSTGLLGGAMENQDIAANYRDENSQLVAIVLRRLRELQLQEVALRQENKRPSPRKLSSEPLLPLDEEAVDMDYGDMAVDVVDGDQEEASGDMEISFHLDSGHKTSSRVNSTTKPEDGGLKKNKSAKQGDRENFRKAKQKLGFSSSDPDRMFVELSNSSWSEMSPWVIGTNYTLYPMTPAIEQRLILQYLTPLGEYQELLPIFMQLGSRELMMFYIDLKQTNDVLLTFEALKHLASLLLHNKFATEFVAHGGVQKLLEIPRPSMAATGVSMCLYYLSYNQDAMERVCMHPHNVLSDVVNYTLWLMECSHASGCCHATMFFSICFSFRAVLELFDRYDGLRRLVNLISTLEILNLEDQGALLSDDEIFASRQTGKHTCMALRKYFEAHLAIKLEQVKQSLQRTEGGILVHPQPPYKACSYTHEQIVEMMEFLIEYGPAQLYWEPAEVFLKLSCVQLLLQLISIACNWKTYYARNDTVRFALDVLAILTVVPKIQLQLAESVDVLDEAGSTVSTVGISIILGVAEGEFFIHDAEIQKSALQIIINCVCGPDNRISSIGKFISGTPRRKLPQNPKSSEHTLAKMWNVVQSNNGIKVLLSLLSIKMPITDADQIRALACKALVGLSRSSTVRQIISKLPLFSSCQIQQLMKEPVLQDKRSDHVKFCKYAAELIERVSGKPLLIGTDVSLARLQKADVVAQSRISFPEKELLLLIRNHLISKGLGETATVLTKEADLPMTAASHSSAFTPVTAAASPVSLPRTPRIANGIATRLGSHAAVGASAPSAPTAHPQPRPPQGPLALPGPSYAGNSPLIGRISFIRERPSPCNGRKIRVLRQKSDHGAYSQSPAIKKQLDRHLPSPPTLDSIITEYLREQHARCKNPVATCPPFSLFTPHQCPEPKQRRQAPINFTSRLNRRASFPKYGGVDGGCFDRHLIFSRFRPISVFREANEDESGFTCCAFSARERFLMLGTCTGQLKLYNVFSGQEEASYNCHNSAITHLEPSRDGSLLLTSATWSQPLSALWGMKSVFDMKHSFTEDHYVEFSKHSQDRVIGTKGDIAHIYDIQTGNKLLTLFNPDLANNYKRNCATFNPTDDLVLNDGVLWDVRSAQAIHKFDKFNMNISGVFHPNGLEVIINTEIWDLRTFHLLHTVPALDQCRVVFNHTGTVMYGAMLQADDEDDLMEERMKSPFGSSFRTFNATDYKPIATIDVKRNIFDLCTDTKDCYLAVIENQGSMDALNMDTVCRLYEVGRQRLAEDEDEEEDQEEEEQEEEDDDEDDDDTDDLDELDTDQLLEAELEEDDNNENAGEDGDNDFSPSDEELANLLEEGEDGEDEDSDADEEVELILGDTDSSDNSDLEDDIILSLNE
WDR5: WD repeat-containing protein 5 (WDR5, Homo sapiens, UniProt P61964)
DCAF1; 94.21 °C — “SYPRO Orange fluorescence”: 30500 a.u.
The “SYPRO Orange fluorescence” was 13000 a.u. (WDR5; 26.4 °C).
It gave 12400 a.u. for “SYPRO Orange fluorescence” (DCAF1; 43 °C).
DCAF1; 88.21 °C — “SYPRO Orange fluorescence”: 36900 a.u.
The “SYPRO Orange fluorescence” was 54900 a.u. (DCAF1; 70.81 °C).
The “SYPRO Orange fluorescence” was 59300 a.u. (DCAF1; 65.61 °C).
WDR5; 55.41 °C — “SYPRO Orange fluorescence”: 16800 a.u.
The “SYPRO Orange fluorescence” was 23400 a.u. (DCAF1; 55.81 °C).
For DCAF1; 62.61 °C: “SYPRO Orange fluorescence” read 52500 a.u.
WDR5; 36.6 °C — “SYPRO Orange fluorescence”: 13500 a.u.
For DCAF1; 42.2 °C: “SYPRO Orange fluorescence” read 12300 a.u.

Series 6
SMILES: CC(C)=CCN1C(=O)C(O)(C(=O)O)Oc2cc(F)ccc21 (stereo not shown)
Organism: Arabidopsis thaliana
Strain: Col-0
6.25 µg/mL, seed germination, repetition mean — hypocotyl length: 2.01 cm.
50 µg/mL, seed germination, single repetition — hypocotyl length: 1.84 cm and 1.83 cm and 1.8 cm and 1.82 cm.
100 µg/mL, seed germination, repetition mean — hypocotyl length: 1.43 cm.
It gave 2.1 cm and 2.13 cm and 2.16 cm and 2.15 cm and 2.11 cm for hypocotyl length (3.125 µg/mL, seed germination, single repetition).
6.25 µg/mL, seed germination, single repetition — hypocotyl length: 1.98 cm and 2.06 cm and 2 cm and 2.01 cm and 2.05 cm.
The hypocotyl length was 1.84 cm (25 µg/mL, seed germination, repetition mean).
The hypocotyl length was 2.12 cm (3.125 µg/mL, seed germination, repetition mean).
12.5 µg/mL, seed germination, single repetition — hypocotyl length: 2.02 cm and 1.93 cm and 2 cm and 2.01 cm and 1.97 cm.
50 µg/mL, seed germination, repetition mean — hypocotyl length: 1.82 cm.

Series 7
SMILES: Cc1ncsc1-c1ccc(C(CO)NC(=O)C2CC(O)CN2C(=O)C(NC(=O)c2ccc(COc3c(-c4c(C)c(F)cc5[nH]ncc45)c(C4CC4)cc4c(N5CC6CC5CN6)nc(OC5CCOCC5)nc34)cc2)C(C)C)cc1 (stereo not shown)
Time: 6 days
The viability was 73.1% and 71.9% and 89.6% and 78.9% and 85.3% and 80.7% (ASPC1; cell growth or viability, ATP luminescence; 30 nM).
ASPC1; cell growth or viability, ATP luminescence; 10 µM — viability: 3.78% and 4.12% and 4.21% and 6.43% and 5.29% and 3.33%.
It gave 87.2% and 84.8% and 90.5% for viability (AsPC-1; CellTiter-Glo; 10 nM).
For AsPC-1; CellTiter-Glo; 1 nM: viability read 90.7% and 82.5% and 78.1%.
ASPC1; cell growth or viability, ATP luminescence; 3 µM — viability: 4.3% and 6.37% and 7.33% and 3.97% and 5.5% and 5.26%.
ASPC1; cell growth or viability, ATP luminescence; 1 µM — viability: 8% and 6.9% and 4.25% and 7.37% and 8.36% and 7.74%.
It gave 36.8% and 26.9% and 24% for viability (AsPC-1; CellTiter-Glo; 300 nM).
ASPC1; cell growth or viability, ATP luminescence; 3 nM — viability: 87.2% and 94.8% and 79.2% and 89.7% and 84.9% and 79.7%.

Series 8
SMILES: CCN1/C(=C/C=C2\CCCC(/C=C/C3=[N+](CC)c4ccccc4C3(C)C)=C2NCCCCCCCCN2CCC(Nc3nc4ccccc4n3Cc3ccc(F)cc3)CC2)C(C)(C)c2ccccc21
Cell line: U-87 MG
Concentration: concentration not given
Relative to: DMSO
It gave -1.98 for “log2 fold change” (refers to: F2R mRNA).
For refers to: RGS16 mRNA: “log2 fold change” read 4.66.
It gave 0.81 for “log2 fold change” (refers to: TRIM39 mRNA).
For refers to: YPEL2 mRNA: “log2 fold change” read 1.07.
It gave -0.997 for “log2 fold change” (refers to: ZNF684 mRNA).
The “log2 fold change” was -0.856 (refers to: ANO8 mRNA).
It gave -1.26 for “log2 fold change” (refers to: ZMYM3 mRNA).
It gave -0.819 for “log2 fold change” (refers to: PWP2 mRNA).
It gave 1.4 for “log2 fold change” (refers to: CCPG1 mRNA).
It gave 0.986 for “log2 fold change” (refers to: PLPP5 mRNA).
refers to: BCL2A1 mRNA — “log2 fold change”: 2.89.
It gave 0.954 for “log2 fold change” (refers to: CRY1 mRNA).
It gave 1.54 for “log2 fold change” (refers to: MOAP1 mRNA).
refers to: ZBTB40 mRNA — “log2 fold change”: 0.901.
The “log2 fold change” was 0.938 (refers to: RGPD6 mRNA).
It gave -1.91 for “log2 fold change” (refers to: COL5A1 mRNA).

Single results of other studies
`COCC1CC2C(CCC3(C)C(O)CCC23)c2ccc(O)cc21` (stereo not shown): “log2 expression ratio” 0 (A549; DNA microarray, refers to: TMEM108; concentration not given; relative to: untreated A549 cells).
